Results collected from several papers.
A part holds a random share of what one study measured.

Study 1 — technique: RNA Bind-n-Seq; form: RNA; matrix: in vitro; tested at: 1 µM; setting: whole 134-nt RNA, ends assumed; added: 150 mM KCl; baseline: input library; reading: higher = stronger binding; quantity: log2 enrichment
Target: Ras GTPase-activating protein-binding protein 1, RRM domain (G3BP1, Homo sapiens, UniProt Q13283)
UniProt Q13283, sequence (whole entry, looked up): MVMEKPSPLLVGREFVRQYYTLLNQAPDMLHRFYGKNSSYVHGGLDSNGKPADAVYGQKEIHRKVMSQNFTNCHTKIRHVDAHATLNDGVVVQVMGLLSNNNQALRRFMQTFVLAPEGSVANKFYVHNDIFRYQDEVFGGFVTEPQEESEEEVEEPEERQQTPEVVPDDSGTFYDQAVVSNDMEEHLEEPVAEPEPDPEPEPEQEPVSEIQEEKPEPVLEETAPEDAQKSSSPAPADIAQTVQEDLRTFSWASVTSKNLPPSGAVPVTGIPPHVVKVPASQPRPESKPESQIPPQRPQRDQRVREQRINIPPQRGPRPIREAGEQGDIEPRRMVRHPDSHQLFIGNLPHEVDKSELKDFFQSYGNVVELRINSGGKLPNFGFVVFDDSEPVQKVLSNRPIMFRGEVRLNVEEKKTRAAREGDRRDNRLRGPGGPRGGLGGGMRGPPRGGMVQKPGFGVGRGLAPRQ
Shared flanks, not repeated: GGGAGUUCUACAGUCCGACGAUC … UGGAAUUCUCGGGUGUCAAGG
UCCUGUGCUACACAUCGUAUGUACCGAAUCGGGUUUUUGGGAAAAAAAGGGAAAAAGGGAAAGUAUUAUGUUACGCCGUUCGGAUCUGCA: -0.0309
GCAGGAAGUAAAGACAAAUGGAAAUGCUUCGGAUAGUGGCAGGGGUGGGGGUUGCUAAGGAAAGGGUGGGAUGGGAGUGGGUAAAGAGUU: 1.78
AGUCCUGUGCUACACAUCGUAUGUACCGAAUCGGGGCCCCCGGCCCCCGGCCCCCGGAAAGUAUUAUGUUACGCCGUUCGGAUCUGCACU: -0.355
AAGUCCUGUGCUACACAUCGUAUGUACCGAAUCGGGUUUGGGUUUUUGGGUUUGGGAAAGUAUUAUGUUACGCCGUUCGGAUCUGCACUU: 0.532
ACCAUGCAGGUGGGCAUCUUUGGGAAGUGGGACAAGGGGGGGAUAGGGAGGGGGGUAACACUUUGGGAACAGGUGGUCCCAGGUCGUUUC: -0.545
UGGGAGGUGGAUUUUGUUUAUUUUUUUAGCUCAUUUCCAGGGGUGGGAAUUUUUUUUUAAUAUAUGUCAUGAAUAAAGUUGUUUUUGAAA: 1.54

Study 2 — technique: RNA Bind-n-Seq; form: RNA; matrix: in vitro; tested at: 365 nM; baseline: no-protein control; reading: higher = stronger binding; quantity: RBNS enrichment (R)
Target: RNA binding protein fox-1 homolog 2, RRM domain, GST-SBP tag (RBFOX2, Homo sapiens, UniProt O43251-10, residues 100-194)
Setting: natural RNA segment, single round, ends assumed
Shared flanks, not repeated: GGGAGUUCUACAGUCCGACGAUC … UGGAAUUCUCGGGUGCCAA
Target sequence (chain): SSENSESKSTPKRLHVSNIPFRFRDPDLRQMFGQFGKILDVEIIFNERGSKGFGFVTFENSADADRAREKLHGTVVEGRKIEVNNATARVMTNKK
CUCUCUCUCACACGCCUCUCUCCAAUAGACAGCUUGUAUUUGCAGUAUUUCAUAUUUAUAAAUAUGCGUUUAUUUAAAAGGAGAACAAAAGCUUGACUCUGAUUCACAGU: 0.382
AGGAACAGGCCUCAGGAAUAUUUCUCCCUGGCCAGCCCUGCACUAGCUGGGGCAGGGGCAGAGGACAGCGGCUGUAGCUGUCACAUCUCUGCGACUCAUCCUGUACCGUG: 0.367
ACGCCCUUGGCUUUAGAGCUGUGUUGAAAUCCAUUUUGGUGGUUGGUUUUUAACCCAAACUCAGUGCAUUUUUUAAAAUAGUUAAGAAUCCAAGUCGAGAACACUUGAAC: 0.499
UACCCACUGGGCAGUGGGAAGGCCUACCGACUUACUUUAUCAUUGAGGGCUUACUGAUACAAUGAAAUGAGUUUCAUGACUUUUUUUUUUUUUAAACACUUUUUGAAAUA: 0.398
AUAGGCUCUGUGGAGUUGGCUUGCAUUUGGAUUUCUCUCUUCUAAGGUACAUGUUAAACCUUCCUCUGCCUUCUCAGCCACAUGCUUUUGGCCAUAAAUACUCAAUCUAC: 0.921
AUAAUAUUGCUUUCAAAAAGAAAUGGUAGACAAAACUAUAAUCCAGCAUCUUUUAUUGCAUUGGAAAGACUGGCAAAGUCUUUUGGAUGGGUUGGGAGAUGUGGCUGGAA: 0.364
ACAACAAAAAAGAAUGUUUUGGUAUUGGAGAAGGGAUGGUCAGUUAGCCUGUCUGUCACACGACGGAAUGGAUACUGGGCCCGGGGACCACUUUCAUACUCACGUCCUCA: 0.696
GCUCUGGGCAGGGCCUGGGGAUCCCACAUUCCAUGCCCAGGCUUGGGGGAGGGGGACCCAGACUUGUUGUACAUAUUUUGCAUACUGUCUGAUUAAACACAAACAGACCU: 0.259

Study 3 — technique: protein binding microarray; form: double-stranded DNA, one strand shown; matrix: in vitro; tested at: not given; baseline: not given; reading: higher = stronger binding; quantity: E-score
Target: Histone acetyltransferase KAT6A, both winged helices, GST fusion (KAT6A, Homo sapiens, UniProt Q92794, residues 1-181)
Setting: 8-mer, flanks averaged, mean of 2 arrays, mostly near background
Construct (chain): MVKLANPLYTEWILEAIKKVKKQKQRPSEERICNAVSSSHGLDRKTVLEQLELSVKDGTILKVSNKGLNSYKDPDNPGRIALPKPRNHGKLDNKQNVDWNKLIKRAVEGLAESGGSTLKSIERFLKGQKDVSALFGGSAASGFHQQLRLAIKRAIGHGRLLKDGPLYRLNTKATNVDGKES
CTCGAAAC: -0.0694
ATGGCATG: -0.0379
AGTGGAAT: -0.0406
CCGAAAGC: 0.0459
ACCGGCGC: 0.348
AAGTTTCC: -0.0682
AGTATTAA: 0.0311
CTCGGTTA: 0.0349

Other studies, line by line
PhoQ, residues 284 288 289 292 302 303 GTAMQF — fold induction (PhoP, residues 12 14 15 18 19 MHTVL (Escherichia coli, UniProt P23836); Sort-seq, item: YFP reporter; E. coli; PhoQ-PhoP variant library, added: 10 µM Mg2+; baseline: high Mg2+ state, higher = stronger signaling): 9.68

A few entries again (study 3):
CTCGGTTA: 0.0349
AGTGGAAT: -0.0406
